Measurements of several laboratories.
Every numbered part comes from another study and shows a few of its results, in no order.

Block 1
Target: Histone acetyltransferase KAT6A, both winged helices, GST fusion (KAT6A, Homo sapiens, UniProt Q92794, residues 1-181)
Technique: protein binding microarray
Molecule type: double-stranded DNA, one strand shown
Sample: in vitro
Tested at: not given
Notes: 8-mer, flanks averaged, mean of 2 arrays, mostly near background
Relative to: not given
Reading: higher = stronger binding
Construct (chain): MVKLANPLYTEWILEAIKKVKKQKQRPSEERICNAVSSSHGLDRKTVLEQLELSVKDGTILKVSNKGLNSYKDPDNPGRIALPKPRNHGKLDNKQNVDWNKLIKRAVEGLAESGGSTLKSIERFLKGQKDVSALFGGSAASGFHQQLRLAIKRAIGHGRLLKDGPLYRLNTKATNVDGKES
For `GTCAATGA`, the E-score was -0.0452.
With `TACTCCAA` the E-score was -0.156.
`CAGAATGC` gave an E-score of 0.0815.
The E-score of `CTCCAACC` is reported as -0.0813.

Block 2
Target: PABPC1L2, full length, GST fusion (mouse, UniProt A0ABA7IW68)
Technique: RNAcompete
Molecule type: RNA
Sample: in vitro
Tested at: 20 nM
Notes: 7-mer, probes averaged, single round
Relative to: mean of 7-mers
Reading: higher = stronger binding
Target sequence (chain): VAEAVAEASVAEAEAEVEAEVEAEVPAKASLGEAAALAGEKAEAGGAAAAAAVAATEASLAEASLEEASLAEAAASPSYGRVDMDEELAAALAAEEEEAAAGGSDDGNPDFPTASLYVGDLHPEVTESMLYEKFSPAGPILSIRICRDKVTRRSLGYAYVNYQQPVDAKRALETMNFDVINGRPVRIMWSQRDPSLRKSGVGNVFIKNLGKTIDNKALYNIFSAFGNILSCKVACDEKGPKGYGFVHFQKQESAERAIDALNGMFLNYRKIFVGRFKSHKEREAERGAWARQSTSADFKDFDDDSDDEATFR
`CACCUAA` has a 7-mer Z-score of -0.121.
The 7-mer Z-score of `GACUGUC` is reported as -0.365.
The 7-mer Z-score of `UAAACCG` is reported as 0.113.
With `UGUAAUA` the 7-mer Z-score was -0.112.

Block 3
Target: RING finger protein unkempt homolog, zinc fingers 1-6, GST-SBP tag (UNK, Homo sapiens, UniProt Q9C0B0, residues 30-357)
UniProt Q9C0B0, sequence (30-357, looked up): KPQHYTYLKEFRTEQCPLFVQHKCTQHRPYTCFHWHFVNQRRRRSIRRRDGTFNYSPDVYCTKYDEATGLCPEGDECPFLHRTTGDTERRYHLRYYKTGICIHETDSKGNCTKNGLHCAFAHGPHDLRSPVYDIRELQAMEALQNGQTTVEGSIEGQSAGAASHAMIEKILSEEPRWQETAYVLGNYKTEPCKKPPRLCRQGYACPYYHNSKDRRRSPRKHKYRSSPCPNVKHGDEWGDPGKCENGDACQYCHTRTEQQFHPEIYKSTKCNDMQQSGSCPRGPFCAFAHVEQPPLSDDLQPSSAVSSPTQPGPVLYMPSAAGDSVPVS
Technique: RNA Bind-n-Seq
Molecule type: RNA
Sample: in vitro
Tested at: not given
Notes: RNA with constant flanks, ends assumed
Relative to: input RNA pool
Reading: higher = stronger binding
The bound/input enrichment of `GGGAGUUCUACAGUCCGACGAUCCUUGGGGGCCUAAAGAGACCCCCGUCCUGCCUCCUUUCUUUCUCUGUCUCUUCCUUCCUUUCCGUCUUUUUCAUCCUCUUCUCUUUCCACCAACCCUCCUGCAUCCUUGCCUUGCAGCGUCAACAGAGGAUUGAGCAUCA` is reported as 0.627 ratio.
`GGGAGUUCUACAGUCCGACGAUCGUACUAAAAAAGAGAGUAACUCGGGAGUGUUGAGGCUUUGCGUGAAUGUCUGAGACCGGGCCUGGCUCCACCCCAGGAAGGGAGGCCAACGUCACUAACACUGUAUGUGCAAAUGUCCGCCAACAGAGGAUUGAGCAUCA` has a bound/input enrichment of 0.146 ratio.
The bound/input enrichment of `GGGAGUUCUACAGUCCGACGAUCUCUGCUACACGGGAGCCACCAUACAGAGUACCUAGGGAUGAUUGGGAAGAAAAAAGGCACUUCCGAAGAGAUAGUUUUGAUGAUCGUGGUCCUAGUCUCAACCCAGUGCUUGAUUAUGACCAACAGAGGAUUGAGCAUCA` is reported as 0.453 ratio.
`GGGAGUUCUACAGUCCGACGAUCGCUAUGAAAAGGGGAGAGCCUGCCAUCUACAGGCCACUAGAUCCAAAGCCAUUCCCAAAUUACCGAGCUAACUACAACUUCCGGGGCAUGUACAAUCAGAGGUAUCAUUGCCCAAUGCCCCAACAGAGGAUUGAGCAUCA` gave a bound/input enrichment of 0.225 ratio.

Single results of other studies
With `PhoQ, residues 284 288 289 292 302 303 ALAMYF` the fold induction was 1.47 (PhoP, residues 12 14 15 18 19 SQCLL (Escherichia coli, UniProt P23836); Sort-seq, item: YFP reporter; E. coli; PhoQ-PhoP variant library, with: 10 µM Mg2+; relative to: high Mg2+ state, higher = stronger signaling).

Some of these lines once more (block 3):
`GGGAGUUCUACAGUCCGACGAUCGCUAUGAAAAGGGGAGAGCCUGCCAUCUACAGGCCACUAGAUCCAAAGCCAUUCCCAAAUUACCGAGCUAACUACAACUUCCGGGGCAUGUACAAUCAGAGGUAUCAUUGCCCAAUGCCCCAACAGAGGAUUGAGCAUCA` gave a bound/input enrichment of 0.225 ratio.
